Experimental data from different studies.
Each line is one published result; not all experiments were run side by side. ± marks the error that the study gave.

The tissue uptake of `CC(C)[C@H](NC(=O)[C@@H]1CCCN1C(=O)[C@H](CCCNC(=N)N)NC(=O)[C@H](CS)NC(=O)[C@H](Cc1c[nH]c2ccccc12)NC(=O)[C@H](CCCNC(=N)N)NC(=O)[C@@H](Cc1ccccc1)NC(=O)[C@H](Cc1c[nH]cn1)NC(=O)[C@H](CCC(=O)O)NC(=O)[C@H](CS)NC(=O)[C@H](CS)NC(=O)CNC(=O)[C@@H]1CC(=O)N[C@@H](CCCNC(=N)N)C(=O)NCC(=O)N[C@@H](CC(=O)O)C(=O)N[C@H](Cc2ccc(O)cc2)C(=O)N1)C(N)=O` [technetium-99m labelled] is reported as 3.23 ± 1.01 %ID/g (C57 mice B16/F1 melanoma female, kidneys; iv, 0.037 MBq, 24 h).
With `NC12CNCCNCC(NCc3ccc(CNC(=O)CCCC(=O)NCc4ccc(-c5nncnn5)cc4)cc3)(CNCCNC1)CNCCNC2.[64Cu+2]` the tissue uptake was 1.51 ± 0.2 %ID/g (athymic nude mice, SW1222 xenograft, liver; 24 h post-injection, 24 h pretargeting interval, added: huA33-TCO pretargeting).
For `CCCC[C@H](NC(=O)CNC(=O)CNC(=O)CN1CCN(CC(=O)O)CCN(CC(=O)O)CCN(CC(=O)O)CC1)C(=O)N[C@H]1CC(=O)NCCCC[C@@H](C(N)=O)NC(=O)[C@H](Cc2c[nH]c3ccccc23)NC(=O)[C@H](CCCNC(=N)N)NC(=O)[C@@H](Cc2ccccc2)NC(=O)[C@H](Cc2c[nH]cn2)NC1=O` [gallium-67 labelled], the tissue uptake was 0.72 ± 0.7 %ID/g (female C57 mice, B16/F1 melanoma, bone; intravenous, 0.037 MBq, 24 h).
`O=C([O-])c1cccc(CN(CCN(Cc2cn(Cc3ccccc3)nn2)Cc2cccc(C(=O)[O-])n2)Cc2cn(Cc3ccccc3)nn2)n1.[64Cu+2]` gave a tissue uptake of 6.84 %ID/g (healthy athymic nude mice, kidney; intravenous, 1 h).
`CN1C(=O)[C@@H](Cc2ccc(O)c(I)c2)NC(=O)CNC(=O)[C@H](Cc2ccc3ccccc3c2)NC(=O)[C@H](CCCNC(=N)N)NC(=O)[C@H]1CCCNC(=O)c1ccc(CNC(=O)CN2CCN(CC(=O)O)CCN(CC(=O)O)CCN(CC(=O)O)CC2)cc1` [lutetium-177 labelled] has a tissue uptake of 1.3 ± 1.2 %ID/g (item: 177Lu radioactivity; female CB-17 SCID mice, Daudi xenograft, large intestine; intravenous, 0.16 nmol per mouse, 1 h).
The tissue uptake of `O=C([O-])CN1CCN(CC(=O)[O-])CCN(CC(=O)[O-])CCN(CC(=O)[O-])CC1.[64Cu+2]` is reported as 1.91 %ID/g (healthy athymic nude mice, liver; intravenous, 1 h).
`CCCC[C@H](NC(=O)CN1CCC(NC(=O)CN2CCN(CC(=O)O)CCN(CC(=O)O)CCN(CC(=O)O)CC2)CC1)C(=O)N[C@H]1CC(=O)NCCCC[C@@H](C(N)=O)NC(=O)[C@H](Cc2c[nH]c3ccccc23)NC(=O)[C@H](CCCNC(=N)N)NC(=O)[C@@H](Cc2ccccc2)NC(=O)[C@H](Cc2c[nH]cn2)NC1=O` [gallium-68 labelled] has a tissue uptake of 1.3 ± 1.5 %ID/g (male C57BL/6J mice, B16-F10 tumours, thyroid; intravenous, 1 h, blocking study, added: 100 µg non-radioactive Ga-peptide).
With `N#C[C@@H]1CCCN1C(=O)CNC(=O)c1ccnc2ccc(OCCCN3CCN(C(=O)CCc4ccc5c(c4)CN4CCN(Cc6cc(CCC(=O)O)ccc6O)CC(=O)[O][Al-]([18F])([O]C(=O)C4)[O]5)CC3)cc12` (some centres unmarked) the tissue uptake was 0.47 ± 0.15 %ID/g (BALB/c nude mice, U-87 MG xenograft, tumour; 1 h, blocked 60 min, added: DOTA-FAPI-04 40 nmol co-injected).
For `CCCC[C@@H]1NC(=O)[C@@H](NC(=O)[C@H](CCC(=O)O)NC(=O)CNC(=O)CN2CCN(CC(=O)O)CCN(CC(=O)O)CCN(CC(=O)O)CC2)CCCCNC(=O)C[C@@H](C(N)=O)NC(=O)[C@H](C(C)C)NC(=O)[C@@H]2CCCN2C(=O)[C@H](CCCNC(=N)N)NC(=O)CNC(=O)[C@H](Cc2c[nH]c3ccccc23)NC(=O)[C@H](CCCNC(=N)N)NC(=O)[C@@H](Cc2ccccc2)NC(=O)[C@H](Cc2c[nH]cn2)NC(=O)[C@H](CCC(=O)O)NC1=O` [gallium-67 labelled], the tissue uptake was 0.08 ± 0.07 %ID/g (C57 mice with B16/F1 melanoma, stomach; intravenous, 0.037 MBq, 2 h).
With `CCCC[C@H](NC(=O)CNC(=O)CNC(=O)CN1CCN(CC(=O)O)CCN(CC(=O)O)CC1)C(=O)N[C@H]1CC(=O)NCCCC[C@@H](C(N)=O)NC(=O)[C@H](Cc2c[nH]c3ccccc23)NC(=O)[C@H](CCCNC(=N)N)NC(=O)[C@@H](Cc2ccccc2)NC(=O)[C@H](Cc2c[nH]cn2)NC1=O` [gallium-67 labelled] the tissue uptake was 11.67 ± 0.06 %ID/g (female C57 mice, B16/F1 melanoma, kidneys; intravenous, 0.037 MBq, 0.5 h).
`O=C([O-])CN1CCN(CC(=O)[O-])CCN(CC(=O)NCCc2ccc3c(c2)C2C=CCC2C(c2cc4c(cc2Br)OCO4)N3)CCN(CC(=O)[O-])CC1.[111In+3]` (centres unmarked) has a tissue uptake of 1 ± 0.23 %ID/g (mice with Hec50 tumour xenograft, lungs; 2 h, added: G-1 5 µg blocking).
